Experimental data collected from several papers.
Compare with care: the assays were run in different laboratories. “And” joins repeats or separate records; there may be more than shown. Numbers after ± are the reported error.

SMILES	test	test system	conditions	scale	measurement	result
CC(=O)c1c(C)c2cnc(Nc3ccc(C4CCN(CCS(C)(=O)=O)CC4)cn3)nc2n(C2CCCC2)c1=O	RECIST v1.1	HR+/HER2- advanced breast cancer patients	100 mg twice daily, phase Ib monotherapy arm		best response progressive disease	0%
[131I-].[Na+]	radioiodine ablation	human hyperthyroidism patients	185 MBq, 2 years, long-term follow-up		hypothyroid patients	62.6%
COc1ncc(-c2nc3c(n2C(C)C)[C@H](c2ccc(Cl)cc2)N(c2cc(Cl)cn(C)c2=O)C3=O)c(OC)n1	antileukemic activity, item: treatment failure, resistant disease	human, acute myeloid leukaemia	120 mg, high-dose, RDE, IWG criteria		best overall response	62.5%
CCCCCCCCCC(=O)N[C@@H](Cc1c[nH]c2ccccc12)C(=O)N[C@H](CC(N)=O)C(=O)N[C@@H](CC(=O)O)C(=O)N[C@@H]1C(=O)NCC(=O)N[C@@H](CCCN)C(=O)N[C@@H](CC(=O)O)C(=O)N[C@H](C)C(=O)N[C@@H](CC(=O)O)C(=O)NCC(=O)N[C@H](CO)C(=O)N[C@@H]([C@H](C)CC(=O)O)C(=O)N[C@@H](CC(=O)c2ccccc2N)C(=O)O[C@@H]1C	calcein leakage	DOPC/CHOL liposomes	concentration not given, with: 20 wt% PEG-8000		maximum fusion	63 ± 5%
C=CCCCn1c(O)c(N=NC(=O)c2ccccc2)c2ccccc21		C57BL/6 mice trained on THC	intraperitoneal, 10 mg/kg, THC 5.6 mg/kg discrimination	relative to: vehicle	response rate	increased
CC[C@H](C)[C@@H]1NC(=O)[C@@H]2CCCN2C(=O)[C@H](CC(C)C)NC(=O)[C@H](CC(C)C)NC(=O)CNC(=O)[C@@H](NC(=O)[C@@H](NC(=O)[C@H](CC(=O)O)NC(=O)CNC(=O)[C@@H](NC(=O)[C@H](C)NC(=O)CNC(=O)[C@H](CCCCN)NC(=O)[C@H](CC(C)C)NC(=O)[C@H](CC(C)C)NC(=O)[C@H](CCCCN)NC(=O)CNC(=O)[C@@H](NC(=O)[C@@H](N)CC(C)C)C(C)C)C(C)C)C(C)C)CSSC[C@@H](C(=O)O)NC1=O	RNA-seq, item: Plk3	mouse, traumatic brain injury model, frontal cortex and hippocampus	dose not given	relative to: TBI alone	log2 fold change	-2.27
Nc1ncnc2c1ncn2[C@@H]1O[C@H](COP(=O)(O)O)[C@@H](OP(=O)(O)O)[C@H]1O	binding, equilibrium dialysis LC-MS		5 µM, thermostabilized A2AR-BRIL construct	relative to: no-protein control, direction not given	z-scored log2 fold change	-0.167
C[C@H]1O[C@@H](O[C@H]2CC[C@@]3(C)[C@@H](CC[C@]4(C)[C@@H]3C=C[C@]35OC[C@@]6(CCC(C)(C)C[C@H]63)[C@@H](O)C[C@]54C)[C@]2(C)CO)[C@H](O)[C@@H](O[C@@H]2O[C@H](CO)[C@@H](O)[C@H](O)[C@H]2O)[C@H]1O	Western blot, item: PGC-1α	mouse, hepatic SIRT1 knockdown (AAV8-TBG), liver	dose not given, high dose, unit not given, with: ethanol	relative to: β-actin	protein level	0.214 and 0.267 and 0.359
CCCc1nn(C)c2c(=O)[nH]c(-c3cc(S(=O)(=O)N4CCN(C)CC4)ccc3OCC)nc12		human patients on drug, serum or plasma	dose not given, main analysis, matching 1:5	relative to: off-drug patients, 5.94 mg/dL	mean serum uric acid	6.84 mg/dL
CN1CCN(S(=O)(=O)c2cc([N+](=O)[O-])ccc2N(CCOS(C)(=O)=O)CCOS(C)(=O)=O)CC1		NSG mice, sample BJ PDX	intraperitoneal, 25 mg/kg weekly x3	relative to: treated over vehicle	EFS ratio (T/C)	> 73.8
Cc1nc(Nc2ccc(CC(=O)O)cc2)nc(Nc2ccc(F)c(C(F)(F)F)c2)c1C		mice, chronic ethanol plus binge	intraperitoneal, 0.3 mg/kg daily, ethanol diet 4 weeks, dosed last two	relative to: vehicle	serum ALT	decreased
CC[C@H](C)[C@H](NC(=O)[C@H](CCC(=O)O)NC(=O)[C@H](CCCNC(=N)N)NC(=O)[C@H](CCCNC(=N)N)NC(=O)[C@H](CCCNC(=N)N)NC(=O)[C@H](CCC(N)=O)NC(=O)[C@H](CCCNC(=N)N)NC(=O)[C@H](CCCNC(=N)N)NC(=O)[C@H](CCCCN)NC(=O)[C@H](CCCCN)NC(=O)[C@H](CCCNC(=N)N)NC(=O)CNC(=O)[C@H](Cc1ccc(O)cc1)NC(C)=O)C(=O)N[C@@H](CC(=O)O)C(=O)N[C@@H](Cc1c[nH]cn1)C(=O)N[C@@H](CC(=O)O)C(N)=O	immunoblot, item: phospho-RIPK1, caspase-8, IL-1β, IL-18, IL-6	db/db mouse, hippocampus	intravenous, dose not given, 6 weeks, weekly		protein level	decreased
CC(=O)Nc1nnc(N2CCN([C@@H](C)c3ccc4c(c3)OCO4)CC2)s1	item: tau pS202/pT205 (AT8)	hTau P301L mice, brainstem and hippocampus	dose not given, 6 months, chronic treatment		phospho-tau level	no effect
CCCCC1(CCCC)CN(c2ccccc2)c2cc(SC)c(OCC(=O)N[C@@H](C(=O)NCC(=O)O)c3ccccc3)cc2S(=O)(=O)C1	item: LDL cholesterol	human, serum	10 mg once daily, day 5		serum LDL-C	95.1 mg/dL
CC(C)C1CCC(N2CCC(N3C(=O)C(=O)c4ccccc43)CC2)CC1 (centres unmarked)		conscious Sprague-Dawley rat	intravenous bolus, 100 nmol/kg		peak decrease in mean arterial pressure	-38 ± 3 mmHg
Cc1cn(-c2cc(NC(=O)c3ccc(C)c(Nc4nccc(-c5cccnc5)n4)c3)cc(C(F)(F)F)c2)cn1	item: NPI caregiver distress score	human	dose not given, 12 months versus baseline, unit not given	relative to: placebo	mean difference in change	0
CS(=O)(=O)c1ccc(-c2nnc(/C=C/c3nnc(-c4ccc(C#N)cc4)o3)n2-c2ccccc2Cl)nc1	RNA-seq GSEA, item: FALLER_ENTEROCYTE_PRO_MOUSE	organoids, small intestinal, Apc Q1405X, mouse	dose not given, knockout organoids	relative to: DMSO, direction not given	normalized enrichment score	-2.34
C[C@H](NC(=O)c1c(C(F)F)nn(C)c1Oc1cccc(C(F)(F)F)c1)c1ccc(C(=O)O)cc1		human, advanced tumours	125 mg		median overall survival	4.3 months
C[C@]12CC[C@H](O)C[C@H]1CC[C@@H]1[C@@H]2CC[C@]2(C)[C@@H](c3ccc(=O)oc3)CC[C@]12O		female nude mouse LCC2 xenograft	0.5 mg/kg, day 13, tamoxifen-resistant		tumour volume	84.7 mm3 and 67.4 mm3 and 86.6 mm3 and 62.2 mm3 and 82.9 mm3 and 87.3 mm3 and 80.6 mm3
CCCCCCCCCCCCCCCC(=O)N[C@H]1C[C@@H](O)[C@@H](O)NC(=O)[C@@H]2[C@@H](O)[C@@H](C)CN2C(=O)[C@H]([C@@H](C)O)NC(=O)[C@H]([C@H](O)[C@@H](O)c2ccc(O)cc2)NC(=O)[C@@H]2C[C@@H](O)CN2C(=O)[C@H]([C@@H](C)O)NC1=O	calcein leakage	DOPC/DOPG/CHOL liposomes	concentration not given, with: 20 wt% PEG-8000		maximum fusion	40 ± 10%

Some of these lines once more:
SMILES	test	test system	conditions	scale	measurement	result
CC[C@H](C)[C@H](NC(=O)[C@H](CCC(=O)O)NC(=O)[C@H](CCCNC(=N)N)NC(=O)[C@H](CCCNC(=N)N)NC(=O)[C@H](CCCNC(=N)N)NC(=O)[C@H](CCC(N)=O)NC(=O)[C@H](CCCNC(=N)N)NC(=O)[C@H](CCCNC(=N)N)NC(=O)[C@H](CCCCN)NC(=O)[C@H](CCCCN)NC(=O)[C@H](CCCNC(=N)N)NC(=O)CNC(=O)[C@H](Cc1ccc(O)cc1)NC(C)=O)C(=O)N[C@@H](CC(=O)O)C(=O)N[C@@H](Cc1c[nH]cn1)C(=O)N[C@@H](CC(=O)O)C(N)=O	immunoblot, item: phospho-RIPK1, caspase-8, IL-1β, IL-18, IL-6	db/db mouse, hippocampus	intravenous, dose not given, 6 weeks, weekly		protein level	decreased
CC(=O)Nc1nnc(N2CCN([C@@H](C)c3ccc4c(c3)OCO4)CC2)s1	item: tau pS202/pT205 (AT8)	hTau P301L mice, brainstem and hippocampus	dose not given, 6 months, chronic treatment		phospho-tau level	no effect
CCCCC1(CCCC)CN(c2ccccc2)c2cc(SC)c(OCC(=O)N[C@@H](C(=O)NCC(=O)O)c3ccccc3)cc2S(=O)(=O)C1	item: LDL cholesterol	human, serum	10 mg once daily, day 5		serum LDL-C	95.1 mg/dL
